{"data": "Values quoted from earlier work that unrelated publications cite", "note": "Numbered parts are unrelated; values within a part may stem from several laboratories.", "sequence of UniProt Q9HBX9 (whole entry, looked up)": "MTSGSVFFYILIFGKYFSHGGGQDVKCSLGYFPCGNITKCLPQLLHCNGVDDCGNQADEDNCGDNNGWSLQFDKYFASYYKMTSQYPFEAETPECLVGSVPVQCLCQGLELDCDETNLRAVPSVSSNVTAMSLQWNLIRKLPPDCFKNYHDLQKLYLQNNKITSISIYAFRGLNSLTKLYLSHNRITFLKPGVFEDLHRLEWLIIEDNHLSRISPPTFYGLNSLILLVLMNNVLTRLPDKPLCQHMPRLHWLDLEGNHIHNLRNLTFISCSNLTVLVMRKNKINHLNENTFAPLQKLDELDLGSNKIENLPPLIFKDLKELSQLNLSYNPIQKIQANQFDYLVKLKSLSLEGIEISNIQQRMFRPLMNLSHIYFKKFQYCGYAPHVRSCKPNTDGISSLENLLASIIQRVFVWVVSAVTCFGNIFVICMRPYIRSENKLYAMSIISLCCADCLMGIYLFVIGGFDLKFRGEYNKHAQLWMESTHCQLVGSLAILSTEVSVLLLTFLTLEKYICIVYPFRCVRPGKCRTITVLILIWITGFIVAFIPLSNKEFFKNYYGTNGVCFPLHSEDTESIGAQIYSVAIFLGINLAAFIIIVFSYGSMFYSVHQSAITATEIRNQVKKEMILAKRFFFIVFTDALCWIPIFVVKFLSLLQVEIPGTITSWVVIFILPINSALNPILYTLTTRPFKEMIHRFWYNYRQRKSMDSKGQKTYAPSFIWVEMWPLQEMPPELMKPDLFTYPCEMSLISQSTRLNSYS", "sequence of UniProt Q99967 (whole entry, looked up)": "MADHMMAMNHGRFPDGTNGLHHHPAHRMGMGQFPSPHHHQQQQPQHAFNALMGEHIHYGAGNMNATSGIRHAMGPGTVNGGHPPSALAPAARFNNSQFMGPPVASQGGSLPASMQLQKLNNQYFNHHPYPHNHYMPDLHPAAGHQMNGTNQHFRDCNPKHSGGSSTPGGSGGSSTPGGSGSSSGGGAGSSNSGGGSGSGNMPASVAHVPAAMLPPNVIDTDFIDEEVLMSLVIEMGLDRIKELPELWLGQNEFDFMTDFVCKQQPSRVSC"}
{"data": "Block 1", "organism": "Bacillus subtilis", "form": "peptide", "strain": "ATCC 23857"}
{"Sequence": "IFFRRNKKMAVKVAINGFGRIGRLAFRQMFGRYIAKINPDNKKFKTMPSG", "MIC": "4 µM"}
{"Sequence": "GVPMGSVIKKRRKRMAKKKHRKLLRKTRHQRRNKK", "MIC": "51 µM"}
{"Sequence": "AMTLRKRKFAWYVLSSSLKWLIKKAKKIGVQVCGFE", "MIC": "21 µM"}
{"Sequence": "KKRKGHKMATHKRKKRLRKNRHKKK", "MIC": "3 µM"}
{"Sequence": "RGTCYNRVGLIIRNFSKLKGKKV", "MIC": "12 µM"}
{"Sequence": "DKLISILSLLSKRRKADGFRVKKTQKSSAYKKRF", "MIC": "34 µM"}
{"Sequence": "DRDRPECSTMVKYEQKLPSLGKYALKRAIKIKFGRK", "MIC": "50 µM"}
{"data": "Mixed results", "CBP TAZ1 domain": "CBP TAZ1 domain (Mus musculus, UniProt P45481)", "B1": "CCL1; sequence looked up; chain KSMQVPFSRCCFSFAEQEIPLRAILCYRNTSSICSNEGLIFKLKRGKEACALDTVGWVQRHRKMLRHCPSKRK", "sequence of UniProt P45481 (whole entry, looked up)": "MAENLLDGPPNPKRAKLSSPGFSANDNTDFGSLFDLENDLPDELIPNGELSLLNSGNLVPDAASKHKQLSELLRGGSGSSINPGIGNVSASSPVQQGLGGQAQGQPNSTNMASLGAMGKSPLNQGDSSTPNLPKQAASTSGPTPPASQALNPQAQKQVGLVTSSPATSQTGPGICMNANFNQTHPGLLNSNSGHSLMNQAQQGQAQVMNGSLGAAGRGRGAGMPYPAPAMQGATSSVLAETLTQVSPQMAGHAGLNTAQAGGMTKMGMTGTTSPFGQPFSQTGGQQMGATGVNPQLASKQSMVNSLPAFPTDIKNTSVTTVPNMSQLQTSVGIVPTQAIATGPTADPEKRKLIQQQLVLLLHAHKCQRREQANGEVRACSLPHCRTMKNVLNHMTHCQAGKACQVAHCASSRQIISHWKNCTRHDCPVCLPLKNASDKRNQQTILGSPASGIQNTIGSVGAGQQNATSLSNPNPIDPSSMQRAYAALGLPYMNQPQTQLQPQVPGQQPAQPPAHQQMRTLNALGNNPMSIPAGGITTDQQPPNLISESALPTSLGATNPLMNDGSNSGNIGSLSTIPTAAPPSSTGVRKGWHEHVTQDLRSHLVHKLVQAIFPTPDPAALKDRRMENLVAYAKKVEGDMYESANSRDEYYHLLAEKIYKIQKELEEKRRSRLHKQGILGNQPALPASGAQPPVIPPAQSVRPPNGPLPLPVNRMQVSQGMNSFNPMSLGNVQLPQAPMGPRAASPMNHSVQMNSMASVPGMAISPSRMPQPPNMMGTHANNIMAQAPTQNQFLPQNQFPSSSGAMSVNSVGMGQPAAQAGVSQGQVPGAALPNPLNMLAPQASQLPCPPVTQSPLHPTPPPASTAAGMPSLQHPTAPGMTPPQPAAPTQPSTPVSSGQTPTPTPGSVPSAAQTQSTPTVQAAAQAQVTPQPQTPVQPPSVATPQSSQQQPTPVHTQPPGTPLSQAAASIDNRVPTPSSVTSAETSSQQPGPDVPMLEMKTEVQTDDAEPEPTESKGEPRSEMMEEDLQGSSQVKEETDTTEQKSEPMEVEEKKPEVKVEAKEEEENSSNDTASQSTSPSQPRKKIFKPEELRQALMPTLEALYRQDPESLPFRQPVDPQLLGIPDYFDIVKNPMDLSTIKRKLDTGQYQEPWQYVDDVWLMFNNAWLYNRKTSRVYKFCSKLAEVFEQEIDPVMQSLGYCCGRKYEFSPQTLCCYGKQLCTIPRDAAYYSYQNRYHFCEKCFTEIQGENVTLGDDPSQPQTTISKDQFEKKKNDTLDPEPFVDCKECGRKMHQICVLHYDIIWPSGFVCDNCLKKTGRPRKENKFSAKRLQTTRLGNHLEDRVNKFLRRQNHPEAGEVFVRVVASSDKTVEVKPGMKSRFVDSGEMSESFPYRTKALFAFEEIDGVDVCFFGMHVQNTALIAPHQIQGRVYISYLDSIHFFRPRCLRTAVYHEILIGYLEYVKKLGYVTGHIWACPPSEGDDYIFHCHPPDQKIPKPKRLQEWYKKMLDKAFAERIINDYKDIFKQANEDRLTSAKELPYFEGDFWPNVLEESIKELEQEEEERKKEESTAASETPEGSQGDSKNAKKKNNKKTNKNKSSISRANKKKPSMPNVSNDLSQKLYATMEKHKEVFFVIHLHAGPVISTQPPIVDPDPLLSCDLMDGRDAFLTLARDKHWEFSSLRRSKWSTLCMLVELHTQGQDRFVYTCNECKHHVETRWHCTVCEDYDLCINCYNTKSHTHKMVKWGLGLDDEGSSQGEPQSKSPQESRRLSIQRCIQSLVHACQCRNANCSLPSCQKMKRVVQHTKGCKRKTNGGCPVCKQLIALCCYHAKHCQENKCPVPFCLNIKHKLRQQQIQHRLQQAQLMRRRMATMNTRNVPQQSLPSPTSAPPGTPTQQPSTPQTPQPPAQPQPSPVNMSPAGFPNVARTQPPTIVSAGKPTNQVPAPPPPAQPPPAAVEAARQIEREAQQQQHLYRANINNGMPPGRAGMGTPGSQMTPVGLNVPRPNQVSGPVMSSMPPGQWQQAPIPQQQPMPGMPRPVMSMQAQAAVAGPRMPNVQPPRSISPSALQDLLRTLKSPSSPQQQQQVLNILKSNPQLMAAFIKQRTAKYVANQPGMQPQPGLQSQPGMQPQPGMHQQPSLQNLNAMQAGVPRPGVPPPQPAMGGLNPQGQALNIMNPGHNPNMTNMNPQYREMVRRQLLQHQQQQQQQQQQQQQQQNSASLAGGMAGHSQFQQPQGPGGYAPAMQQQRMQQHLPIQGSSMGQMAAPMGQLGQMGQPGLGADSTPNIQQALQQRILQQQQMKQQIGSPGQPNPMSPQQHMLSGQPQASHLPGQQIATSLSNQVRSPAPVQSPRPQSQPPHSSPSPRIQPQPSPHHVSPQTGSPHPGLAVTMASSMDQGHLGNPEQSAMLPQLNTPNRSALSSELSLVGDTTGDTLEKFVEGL"}
{"Molecule": "pegcetacoplan", "system": "human", "conditions": "repeated dosing, 270 mg/day for 28 days, approximate", "quantity": "AUC(0-29 d)", "value": "208000 µg·h/mL"}
{"Molecule": "B1 (CCL1)", "target or system": "CCR8 F112A mutant", "test": "IP accumulation, agonist", "quantity": "EC50", "value": "4.6 nM"}
{"Molecule": "ifinatamab deruxtecan", "system": "patients with advanced solid tumours", "conditions": "dose not given, mCRPC cohort", "quantity": "objective response rate", "value": "33%"}
{"Molecule": "CITED2 CTAD (Homo sapiens, UniProt Q99967)", "target or system": "CBP TAZ1 domain", "test": "fluorescence anisotropy", "quantity": "Kd", "value": "10 nM"}
{"Molecule": "relaxin-2", "target or system": "Relaxin receptor 1 (RXFP1, Homo sapiens, UniProt Q9HBX9)", "test": "cAMP production, agonist", "quantity": "EC50", "value": "0.02 nM"}
{"Molecule": "LAGGGSASSSAHAAAFR", "test": "isocratic RP-HPLC, C18 column", "system": "peptide, water/acetonitrile, 0.1% TFA", "conditions": "25 °C", "quantity": "retention coefficient S", "value": 23.5}
{"Molecule": "HIF1A CTAD (Homo sapiens, UniProt Q16665)", "target or system": "CBP TAZ1 domain", "test": "fluorescence anisotropy", "quantity": "Kd", "value": "10 nM"}
